Results pooled from the literature.
Compare with care: the assays were run in different laboratories.
Organism: Bacillus subtilis

SMILES	observed	method	strain	time	temperature	MIC
CC(C)CCOC1C(C)C2C(C=CC3C(C)C=CC=CC(C)OC(=O)C(C)C(=O)C(Cl)(Cl)C(=O)C32)CC1(C)O (stereo not shown)	microbial growth	broth dilution				0.8 µg/mL
CN(C)C(=N)NC(=N)N.CN(C)C(=N)NC(=N)N.[Cu+2].[O-][Cl+3]([O-])([O-])[O-].[O-][Cl+3]([O-])([O-])[O-]		broth microdilution				128 µg/mL
CCCCCCCCCCCCCc1cc(O)cc(O)c1	microbial growth	broth dilution	168			8 µg/mL
CCCCCCCCCCCCCCCCCCCCCCSCC1OC(OC2C(N)CC(N)C(OC3OC(CN)C(O)CC3N)C2O)C(O)C(N)C1O (stereo not shown)			168			150 µg/mL
CC(C)CCCCCCCCCCCCc1cc(O)cc(O)c1	microbial growth	broth dilution	168			64 µg/mL
C/C(=N\Nc1nc(-c2ccc(Cl)cc2)cs1)c1ccc2c(c1)sc1nc(=O)c(C#N)cn12	microbial growth	broth dilution				< 72 µg/mL
CC1=CC(C)=[N+]2C1=Cc1ccc(CCC(=O)NCCCn3cc(CCCCC(=O)Oc4ccccc4C(=O)c4cc(Cl)c(Cl)n4-c4c(C(=O)c5ccccc5O)[nH]c(Cl)c4Cl)nn3)n1[B-]2(F)F	microbial growth	broth dilution	168	20 h		0.25 µg/mL
Oc1c(Br)ccc2cccnc12	microbial growth	agar dilution	ATCC6633			35.7 µM
O=C(O)CN1C(=O)/C(=C/c2ccc(-c3ccc(N(c4ccccc4)c4ccccc4)cc3)cc2)NC1=S		broth microdilution	ATCC 6633			3.9 µg/mL
Cn1c(C23CC4CC(CC(C4)C2)C3)nn(CCN2CCCCC2)c1=S		two-fold dilution	IFO 3007	24 h	36 °C	2 µg/mL
COc1ccc(-c2csc(N/N=C(\C)c3ccc4c(c3)sc3nc(=O)c(C#N)cn34)n2)cc1	microbial growth	broth dilution				< 47 µg/mL
CC1C=CC=CC(C)C2C=CC3CC(C)(Cl)C(O)C(C)C3C2C(=O)C(Cl)(Cl)C(=O)C(C)C(=O)O1 (stereo not shown)	microbial growth	broth dilution				0.1 µg/mL
O=C(c1cc(Cl)c(Cl)[nH]1)c1ccccc1O	microbial growth	broth dilution	168	20 h		16 µg/mL
FC(F)(F)c1cc(CSc2nnc(C34CC5CC(CC(C5)C3)C4)n2-c2ccccc2)cc(C(F)(F)F)c1		two-fold dilution	IFO 3007	24 h	36 °C	0.5 µg/mL
CCCCOC1C(C)C2C(C=CC3C(C)C=CC=CC(C)OC(=O)C(C)C(=O)C(Cl)(Cl)C(=O)C32)CC1(C)O (stereo not shown)	microbial growth	broth dilution				0.8 µg/mL
COC(=O)CCCCc1cn(CCCNC(=O)Cc2cc(=O)oc3cc(N(C)C)ccc23)nn1	microbial growth	broth dilution	168	20 h		> 64 µg/mL

Some of these lines once more:
SMILES	observed	method	strain	time	temperature	MIC
CC1C=CC=CC(C)C2C=CC3CC(C)(Cl)C(O)C(C)C3C2C(=O)C(Cl)(Cl)C(=O)C(C)C(=O)O1 (stereo not shown)	microbial growth	broth dilution				0.1 µg/mL
O=C(c1cc(Cl)c(Cl)[nH]1)c1ccccc1O	microbial growth	broth dilution	168	20 h		16 µg/mL
